Published values from different studies.
Lines come from different studies, so protocols differ. “And” joins repeats or separate records; there may be more than shown. ± marks the error that the study gave.
Genome polyprotein NS3 helicase domain: Genome polyprotein, NS3 helicase domain (Hepatitis C virus genotype 1b, UniProt Q9WMX2)
CALM1 Ca2+-bound C-lobe: Calmodulin-1, Ca2+-bound C-lobe (CALM1, Homo sapiens, UniProt P0DP23)
WD repeat-containing protein 91 WD40 domain, residues 392–747: WD repeat-containing protein 91, WD40 domain, residues 392–747 (Homo sapiens, UniProt A4D1P6)
ESR1: Estrogen receptor (ESR1, Homo sapiens, UniProt P03372)

SMILES | tested on | assay | test system | conditions | scale | endpoint | value
O=O | Hypoxia-inducible factor 1-alpha inhibitor (HIF1AN, Homo sapiens, UniProt Q9NWT6, Q147A) | substrate, MALDI-TOF MS | – | pH 7.00, 37.0 °C, mutant Q147A, added: CTAD peptide 80 µM, 2-oxoglutarate 100 µM | – | Km | 758 ± 250 µM
Nc1ncnc2c1ncn2[C@@H]1O[C@H](CO[P@](=O)(O)O[P@](=O)(O)O[P@@](=O)(O)S)[C@@H](O)[C@H]1O | GUK1 (Homo sapiens, UniProt Q16774) | ITC | – | concentration not given | – | -TΔS of binding | -1.81 kcal/mol
CC(C)C[C@H](NC(=O)C[C@H](O)[C@H](CC(C)C)NC(=O)[C@H](Cc1c[nH]cn1)NC(=O)CNC(=O)[C@@H](NC(=O)[C@H](C)NC(=O)[C@H](Cc1c[nH]c2ccccc12)NC(=O)[C@H](CCC(N)=O)NC(=O)[C@@H](Cc1ccccc1)NC(=O)COCCOCCNC(=O)CCC(C(=O)O)N1CCN(CC(=O)O)CCN(CC(=O)O)CCN(CC(=O)O)CC1)C(C)C)C(N)=O (stereo partly drawn) [lutetium-177 labelled] | – | – | female BALB/c nu/nu mice, kidneys | intravenous, 100 pmol, 90 h, added: PA 300 µg | – | tissue uptake | 0.23 ± 0.04 %ID/g
COc1cc([C@@H]2c3cc4c(cc3[C@@H](O[C@@H]3O[C@@H]5CO[C@@H](C)O[C@H]5[C@H](O)[C@H]3O)[C@H]3COC(=O)[C@H]23)OCO4)cc(OC)c1O | Genome polyprotein NS3 helicase domain | DNA binding, inhibitor | hepatitis C virus | 100 µM, added: Cy5-dT15 DNA | – | inhibition | 2%
Nc1ncnc2c1ncn2[C@@H]1O[C@H](COP(=O)(O)OP(=O)(O)OP(=O)(O)O)[C@@H](O)[C@H]1O | Hexokinase-3 (HK3, Homo sapiens, UniProt P52790) | enzyme activity, substrate, coupled G6PDH | – | Michaelis-Menten fit, added: glucose 0.5 mM | – | kcat | 46 ± 12 s⁻¹
CC(=O)NCCCC[C@H](NC(=O)CNC(=O)[C@H](CCCNC(=N)N)NC(C)=O)C(=O)Nc1ccc2c(C)cc(=O)oc2c1 | human K353L/Y782F mutant enzyme | substrate, fluorogenic | – | – | – | Km | 52 ± 6 µM
CC[C@H](C)[C@H](NC(=O)[C@H](CCCCN)NC(=O)CNC(=O)[C@@H](NC(=O)[C@@H](NC(=O)[C@H](CCSC)NC(=O)[C@H](Cc1c[nH]cn1)NC(=O)CN)[C@@H](C)O)C(C)C)C(=O)N[C@@H](Cc1ccc(O)cc1)C(=O)N[C@@H](C)C(=O)N[C@@H](C)C(=O)N[C@@H](CCSC)C(=O)N[C@@H](CCSC)C(=O)N[C@H](C(=O)N[C@@H](CCSC)C(=O)N[C@@H](CCC(=O)O)C(=O)N[C@@H](Cc1ccc(O)cc1)C(=O)N[C@@H](C)C(=O)N[C@@H](CCCNC(=N)N)C(=O)N[C@@H](CCC(N)=O)C(=O)N[C@@H](CO)C(=O)N[C@@H](CCCCN)C(=O)N[C@@H](C)C(=O)N[C@@H](CCCCN)C(=O)N[C@@H](CCCCN)C(=O)N[C@@H](CC(C)C)C(=O)N[C@@H](CCC(N)=O)C(=O)N[C@@H](C)C(=O)N[C@@H](CCSC)C(=O)N[C@@H](CCCNC(=N)N)C(=O)O)[C@@H](C)CC | CALM1 Ca2+-bound C-lobe | binding, isothermal titration calorimetry | – | pH 7.4, 15 °C, Ca2+-bound C-lobe, added: CaV2.1 IQ peptide | – | stoichiometry | 0.83 ± 0.14
Cc1cccc(N2CC(C(=O)O)CC2=O)c1 (stereo not drawn) | Transducin-like enhancer protein 4 (TLE4, Homo sapiens, UniProt Q04727) | binding, affinity selection mass spectrometry | – | – | reference: other proteins in batch | fold enrichment | 0.716
Nc1ncnc2c1ncn2[C@@H]1O[C@H](COP(=O)(O)CP(=O)(O)OP(=O)(O)O)[C@@H](O)[C@H]1O | P2X purinoceptor 1 (P2RX1, Homo sapiens, UniProt P51575, R139P) | saturation binding | HEK293 | 79 nM | – | specific binding | 1220 CCPM and 1490 CCPM
NCCS(=O)(=O)O | Sodium- and chloride-dependent taurine transporter (SLC6A6, Homo sapiens, UniProt P31641, S402A) | binding, microscale thermophoresis | – | 31.3 µM, room temperature, added: 50 nM labelled protein | higher = more binding | normalised MST signal | 0.0273
Cn1cc(-c2ccc(-c3cncc(Cl)c3N3CCC4(CCNC4=O)CC3)cc2)cn1 | COLO 205 | gene expression, microarray, item: SOD1 mRNA | – | concentration not given, 6 h | reference: untreated cells | log2 fold change | -2.29
N#CC1CCN(C(=O)c2ccc(CSc3cc(Cl)ccc3Cl)cc2)CC1 | WD repeat-containing protein 91 WD40 domain, residues 392–747 | binding, SPR single-concentration screen | – | 45 µM | – | SPR response | 11.3 RU and 14.2 RU
CC[C@H](C)C(=O)O[C@H]1C[C@H](O)C=C2C=C[C@H](C)[C@H](CC[C@@H](O)C[C@@H](O)CC(=O)O)[C@H]21 | Nuclear receptor subfamily 4 group A member 3, ligand-binding domain (Homo sapiens, UniProt Q92570) | reporter gene, Gal4 hybrid reporter | – | 10 µM | reference: vehicle | activation | 0.91 fold
Cl.N[C@@H](Cc1cnc[nH]1)C(=O)O | Genome polyprotein NS3 helicase domain | DNA binding, inhibitor | hepatitis C virus | 100 µM, added: Cy5-dT15 DNA | – | inhibition | 0%
CC1(C)C=Cc2c(ccc3c2OC[C@@H](c2ccc(O)cc2O)C3)O1 | ESR1 | array formation | PRL-HeLa | – | reference: EC50 ERβ over EC50 ERα | selectivity ratio | 0.0939
CCN(CC)Cc1cn(Cc2ccc(C(=O)N[C@@H]3CCc4c(C#N)cccc43)cc2)nn1 | WD repeat-containing protein 91, residues 392–747 (Homo sapiens, UniProt A4D1P6) | SPR dose-response titration | – | concentration not given, 1:1 binding model | – | binding | 103% and 96%
CC[C@H](C)[C@H](NC(=O)[C@H](CCSC)NC(=O)[C@H](CCSC)NC(=O)[C@H](C)NC(=O)[C@H](C)NC(=O)[C@H](Cc1ccc(O)cc1)NC(=O)[C@H](C)NC(=O)[C@H](CCCCN)NC(=O)CNC(=O)[C@@H](NC(=O)[C@@H](NC(=O)[C@H](CCSC)NC(=O)[C@H](Cc1c[nH]cn1)NC(=O)CN)[C@@H](C)O)C(C)C)C(=O)N[C@@H](CCSC)C(=O)N[C@@H](CCC(=O)O)C(=O)N[C@@H](Cc1ccc(O)cc1)C(=O)N[C@@H](Cc1ccc(O)cc1)C(=O)N[C@@H](CCCNC(=N)N)C(=O)N[C@@H](CCC(N)=O)C(=O)N[C@@H](CO)C(=O)N[C@@H](CCCCN)C(=O)N[C@@H](C)C(=O)N[C@@H](CCCCN)C(=O)N[C@@H](CCCCN)C(=O)N[C@@H](CC(C)C)C(=O)N[C@@H](CCC(N)=O)C(=O)N[C@@H](C)C(=O)N[C@@H](CCSC)C(=O)N[C@@H](CCCNC(=N)N)C(=O)O | CALM1 Ca2+-bound C-lobe | binding, isothermal titration calorimetry | – | pH 7.4, 15 °C, Ca2+-bound C-lobe, added: CaV2.1 IQ peptide | – | stoichiometry | 0.97 ± 0.01
CC(C)Oc1c(NC(=O)c2ccc(NC(=O)[C@H](CC(N)=O)NC(=O)c3ccc(NC(=O)c4ccc(C#N)cc4)cc3)cc2)ccc(C(=O)Nc2ccc(C(=O)O)cc2)c1O | Escherichia coli ATCC 25922 | – | neutropenic male CD-1 mice, kidney | iv then sc, 37.5 mg/kg/day, 24 h after infection, thigh infection model | – | concentration | 2.43 ± 0.6 ng/mL

SMILES | tested on | assay | test system | conditions | scale | endpoint | value
CCCCCCSC[C@H]1CN(Cc2c[nH]c3c(N)ncnc23)C[C@@H]1O | Aminodeoxyfutalosine nucleosidase (Helicobacter pylori, UniProt Q9ZMY2) | radiolabel chase ultrafiltration | – | pH 7.4, inhibitor off-rate | – | k4 | 0.032 ± 0.004 min⁻¹
CCN1CCC[C@H]1CNC(=O)c1c(O)c(Cl)cc(Cl)c1OC | Adhesion G protein-coupled receptor D2 (ADGRD2, Homo sapiens, UniProt Q7Z7M1) | β-arrestin recruitment, TANGO luminescence, item: GPR144 | – | concentration not given | reference: basal luminescence | log2 fold change | 0.381
CCN(CC)CCOc1ccc2c(c1)C(=O)c1cc(OCCN(CC)CC)ccc1-2 | Acetylcholinesterase (ACHE, Homo sapiens, UniProt P22303) | enzyme activity, colorimetric | – | top 100, bottom 0 fixed | – | Hill slope | 0.84
Cn1c(=O)c2[nH]cnc2n(C)c1=O | Glutamate receptor 2 (Homo sapiens, UniProt P42262) | ion current, agonist, SyncroPatch patch clamp | HEK293 | 3 µM | – | activation | 2%
O=C1C[C@@H](c2ccc(O)c(O)c2)Oc2cc(O)cc(O)c21 | ESR1 | array formation | PRL-HeLa | – | reference: EC50 ERβ over EC50 ERα | selectivity ratio | 0.79
Nc1ncnc2c1ncn2[C@@H]1O[C@H](COP(=O)(O)OP(=O)(O)OP(=O)(O)O)[C@@H](O)[C@H]1O | P2X purinoceptor 7 (P2rx7, Rattus norvegicus, UniProt Q64663, I214A/Q143A) | ion current, agonist, two-electrode voltage clamp | Xenopus laevis oocytes | 8100 µM | reference: highest concentration response | normalized current | 1.01 and 0.985 and 1
N#CC1CCN(C(=O)c2ccc(NS(=O)(=O)c3ccc4c(c3)OCCO4)cc2)CC1 | WD repeat-containing protein 91 WD40 domain, residues 392–747 | binding, SPR single-concentration screen | – | 45 µM | – | SPR response | -0.2 RU and -4.9 RU
CN(C)CCC(c1ccc(Br)cc1)c1ccccn1.O=C(O)/C=C\C(=O)O (racemic) | Genome polyprotein NS3 helicase domain | DNA binding, inhibitor | hepatitis C virus | 100 µM, added: Cy5-dT15 DNA | – | inhibition | 0%
CC(C)[C@H](NC(=O)[C@H](Cc1ccc(O)cc1)NC(=O)[C@H](Cc1ccc(O)cc1)NC(=O)[C@@H]1CCCN1C(=O)[C@H](CCC(=O)O)NC(=O)[C@H](CCC(=O)O)NC(=O)[C@H](Cc1c[nH]c2ccccc12)NC(=O)[C@@H]1CCCN1C(=O)[C@@H](NC(=O)[C@H](CCC(N)=O)NC(=O)c1ccc2c(c1)C(=O)OC21c2ccc(O)cc2Oc2cc(O)ccc21)C(C)C)C(=O)N[C@H](C(=O)N[C@@H](CCCCN)C(=O)N[C@@H](CCCCN)C(=O)N[C@@H](CO)C(=O)N[C@@H](CO)C(=O)NCC(=O)NCC(N)=O)C(C)C | – | – | human, plasma | intravenous infusion, 500 mg, predose 0 min, day 1 | – | total plasma concentration | not detected
CCN(CC)CCCC(C)Nc1c2ccc(Cl)cc2nc2ccc(OC)cc12 (stereo not drawn) | Genome polyprotein NS3 helicase domain | DNA binding, inhibitor | hepatitis C virus | 100 µM, added: Cy5-dT15 DNA | – | inhibition | 1%
O=c1nc(SCc2cc(F)cc(C(F)(F)F)c2)nc(SCc2ccc3nc(Cl)ccc3c2)[nH]1 | DNA topoisomerase 2-alpha (TOP2A, Homo sapiens, UniProt P11388) | DNA relaxation | – | 31.25 µM, replicate 2 | – | relaxed DNA | 92.2%
O=C(O)CCCCCCCC(=O)O | Genome polyprotein NS3 helicase domain | DNA binding, inhibitor | hepatitis C virus | 100 µM, added: Cy5-dT15 DNA | – | inhibition | 0%
C=C(CS(=O)(=O)c1cc(C(F)(F)F)cc(C(F)(F)F)c1)C(=O)OCC | – | reaction with N-acetyl-lysine, HPLC-MS | – | pH 10.2, added: N-α-acetyl-lysine | – | pseudo-first-order rate constant | 29.4 h⁻¹
NC(=O)C[C@H](N)C(=O)O | N-alpha-acetyltransferase 80 (NAA80, Homo sapiens, UniProt Q93015) | substrate, DTNB | – | 2 mM, 30 min, 37 °C, added: acetyl-CoA 500 µM | – | product formation | 0.09 µM
COc1cc(-c2cncc3c2CN(C)Cc2cc(N4CCNCC4)ccc2-3)cc(OC)c1OC | Cyclin-dependent kinase 12, with cyclin K (CDK12, Homo sapiens, UniProt Q9NYV4) | kinase activity | – | 1 µM, human enzyme, added: ATP 10 µM | reference: DMSO control | remaining activity | 123%
CC(=O)C(=O)O | Uncharacterized protein (Chromohalobacter israelensis, UniProt Q1QT90) | binder, thermal shift | – | – | – | delta Tm | 2.5 °C
c1csc(CNc2cc[nH]n2)c1 | human peripheral blood lymphocytes (female) | – | – | 1130 µg/mL, 4 h, initial, added: with S9 | – | cells with structural aberrations | 0%
CNCc1ccc(-c2[nH]c3cc(F)cc4c3c2CCNC4=O)cc1 | – | item: headache | human patients | oral, 600 mg twice daily, grade 1 | – | patients with adverse event | 7.7%

Excerpt of the above:
SMILES | tested on | assay | test system | conditions | scale | endpoint | value
CCN(CC)CCOc1ccc2c(c1)C(=O)c1cc(OCCN(CC)CC)ccc1-2 | Acetylcholinesterase (ACHE, Homo sapiens, UniProt P22303) | enzyme activity, colorimetric | – | top 100, bottom 0 fixed | – | Hill slope | 0.84
Cn1c(=O)c2[nH]cnc2n(C)c1=O | Glutamate receptor 2 (Homo sapiens, UniProt P42262) | ion current, agonist, SyncroPatch patch clamp | HEK293 | 3 µM | – | activation | 2%
O=C1C[C@@H](c2ccc(O)c(O)c2)Oc2cc(O)cc(O)c21 | ESR1 | array formation | PRL-HeLa | – | reference: EC50 ERβ over EC50 ERα | selectivity ratio | 0.79
Nc1ncnc2c1ncn2[C@@H]1O[C@H](COP(=O)(O)OP(=O)(O)OP(=O)(O)O)[C@@H](O)[C@H]1O | P2X purinoceptor 7 (P2rx7, Rattus norvegicus, UniProt Q64663, I214A/Q143A) | ion current, agonist, two-electrode voltage clamp | Xenopus laevis oocytes | 8100 µM | reference: highest concentration response | normalized current | 1.01 and 0.985 and 1
N#CC1CCN(C(=O)c2ccc(NS(=O)(=O)c3ccc4c(c3)OCCO4)cc2)CC1 | WD repeat-containing protein 91 WD40 domain, residues 392–747 | binding, SPR single-concentration screen | – | 45 µM | – | SPR response | -0.2 RU and -4.9 RU
